# Measured values collected from several papers.
# Compare with care: the assays were run in different laboratories. Numbers after ± are the reported error.
# DRD2: D(2) dopamine receptor (DRD2, Homo sapiens, UniProt P14416)
# Chain of UniProt P14416 (whole entry, looked up): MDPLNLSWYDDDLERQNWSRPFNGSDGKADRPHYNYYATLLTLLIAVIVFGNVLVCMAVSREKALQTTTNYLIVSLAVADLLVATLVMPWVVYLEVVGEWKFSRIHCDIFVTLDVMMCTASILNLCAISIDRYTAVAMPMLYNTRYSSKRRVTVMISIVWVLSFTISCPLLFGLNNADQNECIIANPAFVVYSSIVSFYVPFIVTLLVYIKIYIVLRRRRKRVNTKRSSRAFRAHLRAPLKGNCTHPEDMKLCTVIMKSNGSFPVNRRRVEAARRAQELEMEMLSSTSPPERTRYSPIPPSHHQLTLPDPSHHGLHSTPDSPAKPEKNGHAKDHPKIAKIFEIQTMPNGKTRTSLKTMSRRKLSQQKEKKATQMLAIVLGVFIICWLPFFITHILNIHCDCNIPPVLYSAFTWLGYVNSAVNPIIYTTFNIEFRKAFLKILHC
# Ptger2: Prostaglandin E2 receptor EP2 subtype (Ptger2, Rattus norvegicus, UniProt Q62928)
# Chain of UniProt Q62928 (whole entry, looked up): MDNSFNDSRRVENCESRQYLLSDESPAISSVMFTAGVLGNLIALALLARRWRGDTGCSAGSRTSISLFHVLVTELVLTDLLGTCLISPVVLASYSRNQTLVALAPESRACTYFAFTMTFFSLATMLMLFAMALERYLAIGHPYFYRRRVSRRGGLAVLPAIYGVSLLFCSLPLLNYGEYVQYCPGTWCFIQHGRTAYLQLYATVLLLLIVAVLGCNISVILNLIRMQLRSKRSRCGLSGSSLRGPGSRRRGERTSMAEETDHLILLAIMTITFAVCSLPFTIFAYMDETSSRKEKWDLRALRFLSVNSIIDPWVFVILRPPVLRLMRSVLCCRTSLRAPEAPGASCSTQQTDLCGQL
# Mc1r: Melanocyte-stimulating hormone receptor (Mc1r, Mus musculus, UniProt Q01727)
# Chain of UniProt Q01727 (whole entry, looked up): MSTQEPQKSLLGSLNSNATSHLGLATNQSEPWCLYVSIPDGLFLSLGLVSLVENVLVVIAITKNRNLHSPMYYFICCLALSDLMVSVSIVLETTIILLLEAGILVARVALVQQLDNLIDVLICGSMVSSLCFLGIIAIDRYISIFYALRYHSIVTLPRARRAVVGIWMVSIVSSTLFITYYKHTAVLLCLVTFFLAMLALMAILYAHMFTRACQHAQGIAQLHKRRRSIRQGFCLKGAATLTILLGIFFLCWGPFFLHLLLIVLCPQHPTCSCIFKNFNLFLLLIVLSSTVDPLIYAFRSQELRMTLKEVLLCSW
# Chain of UniProt Q16581 (whole entry, looked up): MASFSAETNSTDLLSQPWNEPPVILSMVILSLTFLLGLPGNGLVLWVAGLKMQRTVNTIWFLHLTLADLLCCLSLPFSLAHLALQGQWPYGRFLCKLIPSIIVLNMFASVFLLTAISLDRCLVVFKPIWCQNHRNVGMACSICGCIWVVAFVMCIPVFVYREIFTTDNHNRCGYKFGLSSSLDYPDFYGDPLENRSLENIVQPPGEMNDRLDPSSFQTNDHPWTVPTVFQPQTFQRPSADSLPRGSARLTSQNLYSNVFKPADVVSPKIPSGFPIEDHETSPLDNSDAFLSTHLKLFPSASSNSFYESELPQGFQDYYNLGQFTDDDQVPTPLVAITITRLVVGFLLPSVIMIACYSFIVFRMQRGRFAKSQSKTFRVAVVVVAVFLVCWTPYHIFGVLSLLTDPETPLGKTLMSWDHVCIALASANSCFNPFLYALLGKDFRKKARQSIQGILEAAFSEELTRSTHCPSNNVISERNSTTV
# Chain of UniProt P81947 (whole entry, looked up): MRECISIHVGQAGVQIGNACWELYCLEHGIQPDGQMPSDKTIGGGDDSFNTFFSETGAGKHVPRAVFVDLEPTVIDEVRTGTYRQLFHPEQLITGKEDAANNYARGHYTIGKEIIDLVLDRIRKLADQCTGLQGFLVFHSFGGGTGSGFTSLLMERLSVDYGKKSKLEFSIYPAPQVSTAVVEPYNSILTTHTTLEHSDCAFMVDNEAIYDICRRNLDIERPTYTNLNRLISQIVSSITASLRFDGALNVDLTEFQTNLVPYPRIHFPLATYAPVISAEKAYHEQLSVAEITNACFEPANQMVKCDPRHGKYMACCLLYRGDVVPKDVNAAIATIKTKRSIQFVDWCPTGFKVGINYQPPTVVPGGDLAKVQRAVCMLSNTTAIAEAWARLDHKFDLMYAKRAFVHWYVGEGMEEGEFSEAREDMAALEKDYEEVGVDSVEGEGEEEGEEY
# Chain of UniProt P23385 (whole entry, looked up): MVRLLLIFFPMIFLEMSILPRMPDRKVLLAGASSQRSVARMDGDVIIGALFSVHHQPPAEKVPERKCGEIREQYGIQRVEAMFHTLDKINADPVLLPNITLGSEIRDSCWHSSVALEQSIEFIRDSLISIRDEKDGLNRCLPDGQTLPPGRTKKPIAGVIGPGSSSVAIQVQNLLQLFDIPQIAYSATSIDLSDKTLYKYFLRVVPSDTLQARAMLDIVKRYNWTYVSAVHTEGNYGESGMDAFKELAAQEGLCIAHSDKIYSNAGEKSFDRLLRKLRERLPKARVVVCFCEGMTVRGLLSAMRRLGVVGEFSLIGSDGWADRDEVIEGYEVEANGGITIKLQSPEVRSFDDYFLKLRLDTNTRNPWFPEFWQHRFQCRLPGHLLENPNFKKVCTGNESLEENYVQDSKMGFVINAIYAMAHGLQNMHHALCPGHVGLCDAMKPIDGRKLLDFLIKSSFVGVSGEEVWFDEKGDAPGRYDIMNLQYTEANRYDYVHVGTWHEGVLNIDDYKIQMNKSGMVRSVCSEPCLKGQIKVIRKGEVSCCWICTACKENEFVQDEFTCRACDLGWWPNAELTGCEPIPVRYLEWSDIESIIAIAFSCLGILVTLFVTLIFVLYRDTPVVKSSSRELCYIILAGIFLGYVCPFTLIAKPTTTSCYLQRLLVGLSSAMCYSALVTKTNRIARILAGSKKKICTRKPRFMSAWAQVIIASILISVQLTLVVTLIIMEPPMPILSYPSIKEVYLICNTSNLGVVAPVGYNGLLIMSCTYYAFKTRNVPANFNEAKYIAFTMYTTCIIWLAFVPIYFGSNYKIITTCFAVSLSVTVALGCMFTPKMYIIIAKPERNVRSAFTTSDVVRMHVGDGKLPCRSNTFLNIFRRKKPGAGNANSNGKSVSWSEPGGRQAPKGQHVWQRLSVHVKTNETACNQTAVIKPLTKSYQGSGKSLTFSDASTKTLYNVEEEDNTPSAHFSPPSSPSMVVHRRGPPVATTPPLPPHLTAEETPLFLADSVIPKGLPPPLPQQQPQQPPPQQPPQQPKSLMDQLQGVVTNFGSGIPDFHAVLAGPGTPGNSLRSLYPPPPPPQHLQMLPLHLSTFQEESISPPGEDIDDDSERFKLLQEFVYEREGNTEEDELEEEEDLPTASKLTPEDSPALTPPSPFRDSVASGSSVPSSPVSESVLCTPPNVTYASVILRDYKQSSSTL
# Chain of UniProt Q6DWJ6 (whole entry, looked up): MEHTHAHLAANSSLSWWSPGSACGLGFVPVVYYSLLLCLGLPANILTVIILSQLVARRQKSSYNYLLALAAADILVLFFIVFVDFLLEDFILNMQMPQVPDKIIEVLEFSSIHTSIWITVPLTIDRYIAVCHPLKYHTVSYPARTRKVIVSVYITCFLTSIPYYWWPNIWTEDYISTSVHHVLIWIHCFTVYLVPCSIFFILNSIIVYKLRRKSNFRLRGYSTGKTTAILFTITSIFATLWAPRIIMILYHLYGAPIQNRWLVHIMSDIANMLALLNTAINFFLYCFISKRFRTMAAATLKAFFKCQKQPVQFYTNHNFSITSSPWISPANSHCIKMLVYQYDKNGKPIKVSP
# Chain of UniProt P23921 (whole entry, looked up): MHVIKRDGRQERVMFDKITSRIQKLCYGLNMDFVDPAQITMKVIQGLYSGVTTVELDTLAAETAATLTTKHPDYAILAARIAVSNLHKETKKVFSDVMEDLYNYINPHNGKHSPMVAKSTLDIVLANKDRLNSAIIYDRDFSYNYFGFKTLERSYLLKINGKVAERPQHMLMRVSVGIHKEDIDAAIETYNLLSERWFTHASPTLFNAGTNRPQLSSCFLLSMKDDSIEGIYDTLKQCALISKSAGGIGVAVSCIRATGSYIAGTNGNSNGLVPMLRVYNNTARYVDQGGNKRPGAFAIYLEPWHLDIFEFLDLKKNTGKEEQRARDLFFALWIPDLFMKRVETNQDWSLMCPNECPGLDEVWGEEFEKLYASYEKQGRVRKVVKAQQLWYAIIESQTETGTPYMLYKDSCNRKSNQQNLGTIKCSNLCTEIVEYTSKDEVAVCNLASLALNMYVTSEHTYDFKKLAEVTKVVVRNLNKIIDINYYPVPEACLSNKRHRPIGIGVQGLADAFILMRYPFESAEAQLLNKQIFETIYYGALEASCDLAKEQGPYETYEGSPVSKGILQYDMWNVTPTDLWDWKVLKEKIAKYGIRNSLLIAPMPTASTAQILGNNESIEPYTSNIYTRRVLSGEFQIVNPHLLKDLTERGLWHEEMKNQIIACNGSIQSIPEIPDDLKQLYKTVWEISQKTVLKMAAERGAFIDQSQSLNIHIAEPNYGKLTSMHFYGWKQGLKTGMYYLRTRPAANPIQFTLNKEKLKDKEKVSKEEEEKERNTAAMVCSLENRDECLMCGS
# Chain of UniProt Q9Y5N1 (whole entry, looked up): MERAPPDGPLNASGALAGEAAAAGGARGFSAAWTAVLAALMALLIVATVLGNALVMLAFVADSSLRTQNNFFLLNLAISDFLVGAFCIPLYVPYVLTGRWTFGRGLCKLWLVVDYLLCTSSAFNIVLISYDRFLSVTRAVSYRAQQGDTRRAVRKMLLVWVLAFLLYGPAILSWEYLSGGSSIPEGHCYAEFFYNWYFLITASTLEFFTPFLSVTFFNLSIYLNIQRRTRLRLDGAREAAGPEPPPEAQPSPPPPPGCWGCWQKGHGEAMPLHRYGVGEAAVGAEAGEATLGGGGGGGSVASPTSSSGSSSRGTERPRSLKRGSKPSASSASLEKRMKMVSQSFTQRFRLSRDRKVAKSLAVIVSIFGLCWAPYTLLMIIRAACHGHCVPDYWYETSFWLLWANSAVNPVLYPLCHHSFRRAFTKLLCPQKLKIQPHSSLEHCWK
Structure (SMILES),target,test,system,conditions,how to read,EC50
CCc1nc2cc(OCCCCN3CCN(c4cccc5c4OCCN5)CC3)ccc2s1,DRD2,"cAMP, agonist, luciferase",,,,1 nM
CCC1=C(O)c2c(oc(-c3csc4cccc(O)c34)cc2=O)C(CC)(CC)C1=O,"Tubulin alpha-1B chain/TUBB2B (Bos taurus, UniProt P81947+Q6B856)",,,,,2800 nM
O=C(O)Cc1c[nH]c2ccccc12,"PIN8 (Arabidopsis thaliana, UniProt Q9LFP6, N223A)","transport current, substrate, SSM electrophysiology",proteoliposomes,,,444000 ± 205000 nM
CCCCC[C@H](O)/C=C/[C@H]1CCC(=O)[C@@H]1C/C=C\CCCC(=O)O,Ptger2,"cAMP, agonist",,,,679 nM
O=c1c(O)c(-c2ccc(O)c(O)c2)oc2cc(O)ccc12,"Kcnh1 (Mus musculus, UniProt Q60603)","V1/2 shift, inside-out patch clamp",Xenopus oocytes,,,3500 ± 400 nM
CSCC[C@H](NC(=O)[C@H](CO)NC(=O)[C@H](Cc1ccc(O)cc1)NC(=O)[C@H](CO)NC(C)=O)C(=O)N[C@@H](CCC(=O)O)C(=O)N[C@@H](Cc1c[nH]cn1)C(=O)N[C@@H](Cc1ccccc1)C(=O)N[C@@H](CCCNC(=N)N)C(=O)N[C@@H](Cc1c[nH]c2ccccc12)C(=O)NCC(=O)N[C@@H](CCCCN)C(=O)N[C@@H](C)C(=O)N[C@H](C(N)=O)C(C)C,Mc1r,,,,,26 ± 25 nM
CCCCCCCC(=O)OC[C@H](COP(=O)(O)O[C@@H]1[C@H](O)[C@H](O)[C@@H](OP(=O)(O)O)[C@H](OP(=O)(O)O)[C@H]1O)OC(=O)CCCCCCC,"Trpv1 (Rattus norvegicus, UniProt O35433)","agonist, inside-out patch clamp",plasma membrane inner leaflet,,,~0.03 mol %
CCCC[C@H](NC(=O)[C@H](CO)NC(=O)[C@H](Cc1ccc(O)cc1)NC(=O)[C@H](CO)NC(C)=O)C(=O)N[C@@H](C)C(=O)N[C@@H](Cc1c[nH]cn1)C(=O)N[C@H](Cc1ccccc1)C(=O)N[C@@H](CCCNC(=N)N)C(=O)N[C@@H](Cc1c[nH]c2ccccc12)C(=O)NCC(=O)N[C@@H](CCCCN)C(=O)N1CCC[C@H]1C(=O)N[C@H](C(N)=O)C(C)C,Mc1r,,,,,0.053 ± 0.011 nM
C=C1/C(=C\C=C2/CCC[C@]3(C)[C@@H]([C@H](C)CC(=O)OC)CC[C@@H]23)C[C@@H](O)C[C@@H]1O,"Vitamin D3 receptor (VDR, Homo sapiens, UniProt P11473)","reporter gene, agonist, luciferase",,,,660 nM
Cc1nc2cc(OCCCCN3CCC(c4cccc(Cl)c4Cl)CC3)ccc2s1,DRD2,"cAMP, agonist, luciferase",,,,76 nM
N=C(N)NCCC[C@H](NC(=O)[C@H](Cc1ccccc1)NC(=O)[C@@H](N)Cc1cnc[nH]1)C(=O)N[C@@H](Cc1c[nH]c2ccccc12)C(=O)O,"GPR139 (Homo sapiens, UniProt Q6DWJ6)","calcium mobilisation, agonist, Fluo-4",CHO transfected,mean of triplicates,,4000 nM
CSCC[C@H](NC(=O)[C@H](CO)NC(=O)[C@H](Cc1ccc(O)cc1)NC(=O)[C@H](CO)NC(C)=O)C(=O)N[C@@H](CCC(=O)O)C(=O)N[C@@H](Cc1c[nH]cn1)C(=O)N[C@@H](Cc1ccccc1)C(=O)N[C@@H](CCCNC(=N)N)C(=O)N[C@@H](Cc1c[nH]c2ccccc12)C(=O)NCC(=O)N[C@@H](CCCCN)C(=O)N1CCC[C@H]1C(=O)N[C@@H](C)C(N)=O,Mc1r,,,,,47 ± 58 nM
Nc1nc(Cl)nc2c1ncn2[C@H]1C[C@H](O)[C@@H](COP(=O)(O)OP(=O)(O)OP(=O)(O)O)O1,"Ribonucleoside-diphosphate reductase large subunit (Homo sapiens, UniProt P23921)",,,,,500 ± 100 nM
Cc1nc2cc(OCCCCN3CCN(c4cccc(Cl)c4Cl)CC3)ccc2s1,DRD2,"cAMP, agonist, luciferase",,,,15 nM
Cc1nc(N)sc1CCCNC(=N)NCCCCCCCCCCCCN,"HRH3 (Homo sapiens, UniProt Q9Y5N1)","GTPγS binding, agonist",,cell membranes,,1320 nM
CCOC(=O)NC(=O)C(c1ccccc1)c1ccccc1,"Grm1 (Rattus norvegicus, UniProt P23385)",,,,,248 ± 50.6 nM
O=C(CCCN1CCCC1)Nc1cccc(NC(=O)c2cccc(NC(=O)Nc3cccc(C(=O)Nc4cccc(NC(=O)CCCN5CCCC5)c4)c3)c2)c1,telomerase,"inhibitor, TRAP-LIG",,,inactive up to solubility limit,> 50000 nM
CSCC[C@H](NC(=O)[C@H](CO)NC(=O)[C@H](Cc1ccc(O)cc1)NC(=O)[C@H](CO)NC(C)=O)C(=O)N[C@@H](CCC(=O)O)C(=O)N[C@@H](Cc1c[nH]cn1)C(=O)N[C@@H](C)C(=O)N[C@@H](CCCNC(=N)N)C(=O)N[C@@H](Cc1c[nH]c2ccccc12)C(=O)NCC(=O)N[C@@H](CCCCN)C(=O)N1CCC[C@H]1C(=O)N[C@H](C(N)=O)C(C)C,Mc1r,,,,,6400 ± 2220 nM
CCCCC[C@H](O)/C=C/[C@H]1CC(F)(F)C(=O)N1CCCCCCC(=O)O,Ptger2,"reporter gene, agonist",,,,851 nM
CCCCNc1cc2ccccc2nc1N,"TLR8 (Homo sapiens, UniProt Q9NR97)","reporter gene, agonist",,,,4280 nM
Cc1nc2cc(OCCCCN3CCN(c4cccc5[nH]c(=O)oc45)CC3)ccc2s1,DRD2,"cAMP, agonist, luciferase",,,,0.27 nM
CSCC[C@H](NC(=O)[C@H](CO)NC(=O)[C@H](Cc1ccc(O)cc1)NC(=O)[C@H](CO)NC(C)=O)C(=O)N[C@@H](CCC(=O)O)C(=O)N[C@@H](C)C(=O)N[C@@H](Cc1ccccc1)C(=O)N[C@@H](CCCNC(=N)N)C(=O)N[C@@H](Cc1c[nH]c2ccccc12)C(=O)NCC(=O)N[C@@H](CCCCN)C(=O)N1CCC[C@H]1C(=O)N[C@H](C(N)=O)C(C)C,Mc1r,,,,,1070 ± 115 nM
CC(C)C[C@H](NC(=O)[C@H](C)NC(=O)[C@H](CO)NC(=O)[C@@H]1CCCN1C(=O)[C@@H]1CCCN1C(=O)[C@H](CCC(N)=O)NC(=O)[C@H](CC(C)C)NC(=O)[C@@H](N)[C@@H](C)O)C(=O)N[C@@H](CCCNC(=N)N)C(=O)N[C@@H](CCCNC(=N)N)C(=O)N[C@@H](CCCNC(=N)N)C(=O)N[C@@H](Cc1c[nH]cn1)C(=O)N[C@@H](Cc1ccc(O)cc1)C(=O)N[C@@H](Cc1c[nH]cn1)C(=O)N[C@@H](Cc1c[nH]cn1)C(=O)N[C@@H](C)C(=O)N[C@@H](CC(C)C)C(=O)N1CCC[C@H]1C(=O)N1CCC[C@H]1C(=O)N[C@@H](CO)C(=O)N[C@@H](CCCNC(=N)N)C(=O)O,"C3AR1 (Homo sapiens, UniProt Q16581)","β-arrestin recruitment, agonist",,,,68800 nM
BP(=O)(OC[C@H]1O[C@@H](n2ccc(=O)[nH]c2=O)[C@H](O)[C@@H]1O)OP(=O)(O)OP(=O)(O)OC[C@H]1O[C@@H](n2ccc(=O)[nH]c2=O)[C@H](O)[C@@H]1O (stereo partly drawn),"P2Y purinoceptor 6 (Rattus norvegicus, UniProt Q63371)","calcium signal, agonist, fluorescence",,,,300 nM
